Values quoted from earlier work as cited in several papers.
Several values in a cell are separate wells, animals, samples, runs or records. ± marks the error that the study gave. Ends that are not written are not given here. [ ]: non-standard residue; d: D form.
Grin2a with GluN1a subunit: Glutamate receptor ionotropic, NMDA 2A, with GluN1a subunit (Grin2a, Rattus norvegicus, UniProt Q00959)
Equilibrative nucleoside transporter 2: Equilibrative nucleoside transporter 2 (Homo sapiens, UniProt Q14542)
ADORA2A: Adenosine receptor A2a (ADORA2A, Homo sapiens, UniProt P29274)

O=C(O)[C@H]1NCCN(C(=O)c2ccc3c(ccc4cc(Br)ccc43)c2)[C@H]1C(=O)O  Ki (Grin2a with GluN1a subunit; ion current, antagonist; Xenopus oocytes expressing GluN1/GluN2A, rat): 0.32 ± 0.01 µM
O=C(OC[C@H]1O[C@@H](OC(=O)c2cc(O)c(O)c(O)c2)[C@H](OC(=O)c2cc(O)c(O)c(O)c2)[C@@H](OC(=O)c2cc(O)c(O)c(O)c2)[C@@H]1OC(=O)c1cc(O)c(O)c(O)c1)c1cc(O)c(O)c(O)c1  Ki (5α-reductase (rat liver microsomes); non-competitive inhibitor; together with: testosterone): 2.68 µM
Nc1ncnc2c(CN3C[C@H](CSc4ccc(Cl)cc4)[C@@H](O)C3)c[nH]c12  Ki (Aminodeoxyfutalosine nucleosidase (Helicobacter pylori, UniProt Q9ZMY2); inhibitor): 0.00057 µM
Nc1nc(=O)c2c([nH]1)NC[C@@H]1CN(c3ccc(C(=O)N[C@@H](CCC(=O)O)C(=O)O)cc3)C(=O)N21  Ki (human cytosolic C1-tetrahydrofolate synthase; dehydrogenase activity): 0.018 ± 0.005 µM
O=C(Nc1ccc2ccccc2c1)c1cc(-c2ccncc2)nc2ccccc12  Ki (Cytochrome P450 2C9 (CYP2C9, Homo sapiens, UniProt P11712); enzyme activity, inhibitor; together with: diclofenac at saturating concentration): 0.03 µM
O=C(O)c1ccc(/C=C2\SC(=S)N(c3cccc(C(F)(F)F)c3)C2=O)cc1  Ki (Cystic fibrosis transmembrane conductance regulator (CFTR, Homo sapiens, UniProt P13569); channel function; permeabilized cells): 0.2 to 0.3 µM
O=C(Nc1ncnc2c1ncn2[C@@H]1O[C@@H]2COP(=O)(O)OC2C1O)c1ccccc1 (stereo in doubt)  Km or Ki (PDE10; cyclic nucleotide hydrolysis, substrate or inhibitor, isothermal titration calorimetry): 45.6 µM
Cc1cccc(CSc2ncnc3c2ncn3C2CC(CO)C(O)C2O)c1 (stereo not shown)  Ki (adenosine kinase (Toxoplasma gondii); apparent Ki equals apparent Km): 27 ± 4.2 µM
C[C@]12CC[C@@H]3c4ccc(O)cc4CC[C@H]3[C@@H]1CC[C@H]2O  EC50 (HT-22; cell protection; together with: glutamate 10 mM): 3.1 µM
CNC(=O)c1cnn(-c2nc(N)c3ncn([C@@H]4O[C@H](CO)[C@@H](O)[C@H]4O)c3n2)c1  Ki (adenosine receptor A1 (human); binding): > 16 µM
c1ccc(CCC2CCN(CCc3ccccc3)CC2)cc1  Ki (Synaptic vesicular amine transporter, tetrabenazine binding site (Slc18a2, Rattus norvegicus, UniProt Q01827); binding; together with: [3H]dihydrotetrabenazine): 1.87 ± 0.25 µM
Ac-W[dPhe(4-I)]RW-NH2 (N-acetyl, D-4-iodo-Phe2, C-amide; dPhe(4-I) = N[C@H](Cc1ccc(I)cc1)C(=O)O)  Ki (mouse MC3R; antagonist, Schild analysis; HEK293): 3.7 µM
OCC1CC(n2cnc3c(SCc4ccccc4Cl)ncnc32)C(O)C1O (stereo not shown)  Ki (adenosine kinase (Toxoplasma gondii); apparent Ki equals apparent Km): 24 ± 5.4 µM
C[C@]12CC[C@@H]3c4cc(C56CC7CC(CC(C7)C5)C6)c(O)cc4CC[C@H]3[C@@H]1CC[C@@H]2O  EC50 (HT-22; cell protection; together with: glutamate 20 mM): 0.121 µM
[Mg+2]  Ki (CNGA1 channel wild type; inhibitor): 20 µM
Nc1nc2c(nc(Br)n2[C@@H]2O[C@@H]3COP(=O)(O)O[C@H]3[C@H]2O)c(=O)[nH]1  Km or Ki (PDE1A; cyclic nucleotide hydrolysis, substrate or inhibitor, isothermal titration calorimetry): 47.2 µM
CNC(=O)c1cc(Oc2ccc(NC(=O)Nc3ccc(Cl)c(C(F)(F)F)c3)c(F)c2)ccn1  beating cessation concentration (hiPSC-derived cardiomyocytes; 72 h, tested 0 to 100 µM): 11 µM
NC(=O)C1=CN([C@@H]2O[C@H](COP(=O)(O)OP(=O)(O)OC[C@H]3O[C@@H](n4cnc5c(N)ncnc54)[C@H](O)[C@@H]3O)[C@@H](O)[C@H]2O)C=CC1  Ki (Alcohol dehydrogenase E chain (Equus caballus, UniProt P00327); enzyme activity, product inhibitor; pH 8.0, 25 °C): 0.5 µM
OC[C@H]1O[C@@H](n2cnc3c(O)ncnc32)[C@H](O)[C@@H]1O  Ki (Equilibrative nucleoside transporter 2; ENT1 knockout): 65 ± 24 µM
C[C@@H]1CCO[C@H]2Cn3cc(C(=O)NCc4ccc(F)cc4F)c(=O)c(O)c3C(=O)N12  Ki (Multidrug and toxin extrusion protein 2 (SLC47A2, Homo sapiens, UniProt Q86VL8); inhibitor; geometric mean of reported): 19.4 µM
CN1C(=N)N(C)/C(=C/c2c[nH]c3cc(Br)ccc23)C1=O  Ki (human 5-HT2A receptor; COS-7 transiently transfected): 2 µM
O=c1[nH]c(=O)c2[nH]c(=O)c(=O)n(C[C@H](O)[C@H](O)[C@H](O)CO)c2[nH]1  Ki (Bacillus subtilis lumazine synthase; inhibitor; recombinant β60 capsid; pH 7.0, Tris·HCl buffer, together with: 2 constant, 1 varied): 7.8 ± 0.5 µM
O=C(O)[C@H]1NCCN(C(=O)c2ccc3c(c2)CCc2cc(Br)ccc2-3)[C@H]1C(=O)O  Ki (Grin2a with GluN1a subunit; ion current, antagonist; Xenopus oocytes expressing GluN1/GluN2A, rat): 3.9 ± 0.2 µM
GIINTLQKYYCRVRGGRCAVLSCLPKEEQIGKCSTRGRKCCRRKK (β-defensin 3 (human); ends and bridges not checked; cysteine pairing not given here; sequence looked up)  Ki (MC1R; peptide): 0.0138 µM
COc1ccccc1CN(C(C)=O)c1cnccc1Oc1ccccc1  Ki (Translocator protein, open form (TSPO, Homo sapiens, UniProt P30536); human brain tissue; high-affinity binders): ~0.004 µM and 0.0034 µM
OCC1CC(n2cnc3c(SCc4ccccc4)ncnc32)C(O)C1O (stereo not shown)  Ki (adenosine kinase (Toxoplasma gondii); apparent Ki equals apparent Km): 105 ± 12 µM
Cc1ccccc1-c1cc(N2CCN(C)CC2)ncc1N(C)C(=O)C(C)(C)c1cc(C(F)(F)F)cc(C(F)(F)F)c1  CL/F (patients, plasma; oral, dose not given, netupitant-palonosetron combination, together with: docetaxel 75 to 100 mg/m^2 IV): 19.5 L/h
C=CC1=C(C)c2cc3[nH]c(cc4nc(cc5[nH]c(cc1n2)c(C)c5CCC(=O)O)C(CCC(=O)O)=C4C)c(C)c3C=C  Ki (TSPO; together with: [3H]Ro5-4864): 2.14 µM
O=C(O)c1cccc([C@H]2CCN[C@@H]2C(=O)O)c1  Ki (Glutamate receptor ionotropic, kainate 2 (Grik2, Rattus norvegicus, UniProt P42260); binding, [3H]kainate displacement; cloned homomeric receptor): > 100 µM
Nc1nc(Cl)nc2c1ncn2[C@H]1C[C@H](O)[C@@H](CO)O1  Ki (Equilibrative nucleoside transporter 2; ENT1 knockout): 23 ± 10 µM
CC[C@H](C)[C@H](NC(=O)[C@@H](NC(=O)[C@H](CO)NC(=O)[C@@H](NC(=O)[C@@H]1CCCN1C(=O)[C@H](Cc1c[nH]c2ccccc12)NC(=O)[C@H](CCCNC(=N)N)NC(=O)[C@H](CO)NC(=O)[C@H](CC(N)=O)NC(=O)[C@H](C)N)[C@@H](C)O)[C@@H](C)CC)C(=O)O  Ki (Na(+)/H(+) exchange regulatory cofactor NHE-RF2, PDZ domain 1 (Homo sapiens, UniProt Q15599); binding, fluorescence polarization displacement; PDZ domain 1, together with: fluorescent CFTR peptide): > 1000 µM
OCC1CC(n2cnc3c(SCc4ccccc4F)ncnc32)C(O)C1O (stereo not shown)  Ki (adenosine kinase (Toxoplasma gondii); apparent Ki equals apparent Km): 55 ± 10 µM
NCCCNC(=O)[C@H]1O[C@@H](n2cnc3c(N)ncnc32)[C@H](O)[C@@H]1O  Ki (adenosine A2A receptor; binding): > 10 µM
CC(Oc1ccc(O)cc1)(P(=O)(O)O)P(=O)(O)O  Ki (inositol monophosphatase, human frontal cortex; inhibitor): 0.3 µM
OCC1CC(n2cnc3c(SCc4ccc(Cl)c(Cl)c4)ncnc32)C(O)C1O (stereo not shown)  Ki (adenosine kinase (Toxoplasma gondii); apparent Ki equals apparent Km): 17 ± 4.1 µM
O=C(O)[C@H]1NCCN(Cc2ccc3c(ccc4ccccc43)c2)[C@H]1C(=O)O  Ki (Grin2a with GluN1a subunit; ion current, antagonist; Xenopus oocytes expressing GluN1/GluN2A, rat): 11.2 ± 1.3 µM
COc1cccc2c1C(=O)c1c(O)c3c(c(O)c1C2=O)C[C@@](O)(C(=O)CO)C[C@@H]3O[C@H]1C[C@H](N)[C@H](O)[C@H](C)O1  beating cessation concentration (hiPSC-derived cardiomyocytes; 72 h, tested 0 to 100 µM): 3.7 µM
CC1CN(c2ccc3ccccc3n2)CCN1CCCCN1C(=O)c2ccccc2C1=O (stereo not shown)  Ki (SERT (human); binding; human tissue; together with: [3H]5-HT): 0.008 ± 0.00407 µM
Cc1ccc(CSc2ncnc3c2ncn3C2CC(CO)C(O)C2O)c(C)c1C (stereo not shown)  Ki (adenosine kinase (Toxoplasma gondii); apparent Ki equals apparent Km): 63 ± 6.9 µM
CNC(=O)[C@@]12C[C@@H]1[C@@H](n1cnc3c(NCc4cccc(Cl)c4)nc(Cl)nc31)[C@H](O)[C@@H]2O  Ki (Adenosine receptor A1 (ADORA1, Homo sapiens, UniProt P30542); CHO; together with: [3H]NECA): 0.26 ± 0.06 µM
O=C(O)c1cc([C@H]2CCN[C@@H]2C(=O)O)ccc1Br  Ki (Glutamate receptor ionotropic, kainate 3 (Rattus norvegicus, UniProt P42264); binding, [3H]kainate displacement; cloned homomeric receptor): > 100 µM
C[C@H](CCC(=O)O)[C@H]1CC[C@H]2[C@@H]3CC[C@@H]4C[C@H](O)CC[C@]4(C)[C@H]3C[C@H](O)[C@]12C  Ki (Ileal sodium/bile acid cotransporter (SLC10A2, Homo sapiens, UniProt Q12908); bile acid transport, inhibitor): 8.31 µM
Nc1ncnc2c1ncn2[C@@H]1O[C@H](COP(=O)(O)OP(=O)(O)O)[C@@H](O)[C@H]1O  Ki (P2Y purinoceptor 1 (P2RY1, Homo sapiens, UniProt P47900); astrocytoma cells): 0.9 µM
MANT-GTP  Ki (Adcy2/ADCY5, C1/C2 domains (Rattus norvegicus, UniProt P26769+P30803); enzyme activity, inhibitor; together with: 10 mM MnCl2 and 100 µM forskolin): 0.13 ± 0.02 µM
CO[C@H]1/C=C/O[C@@]2(C)Oc3c(C)c(O)c4c(O)c(c(/C=N/N5CCN(C)CC5)c(O)c4c3C2=O)NC(=O)/C(C)=C\C=C\[C@H](C)[C@H](O)[C@@H](C)[C@@H](O)[C@@H](C)[C@H](OC(C)=O)[C@@H]1C  Ki (Solute carrier organic anion transporter family member 1B1 (SLCO1B1, Homo sapiens, UniProt Q9Y6L6); inhibitor): 0.48 µM
OCC1CC(n2cnc3c(SCc4ccc(Cl)cc4)ncnc32)C(O)C1O (stereo not shown)  Ki (adenosine kinase (Toxoplasma gondii); apparent Ki equals apparent Km): 16 ± 2.2 µM
CC(C)C[C@H](N)C(=O)O  EC50 (GLUD1 (Homo sapiens, UniProt P00367, H507Y); enzyme activity, activator; mutant enzyme, reductive amination): 470 µM
CNC(=O)[C@@]12C[C@@H]1[C@@H](n1cnc3c(NC4CCCC4)nc(Cl)nc31)[C@H](O)[C@@H]2O  Ki (ADORA2A; binding; HEK293 expressing target): 3.25 ± 0.3 µM
CNC(=O)[C@@]12C[C@@H]1[C@@H](n1cnc3c(NCc4cccc(I)c4)nc(Cl)nc31)[C@H](O)[C@@H]2O  Ki (ADORA2A; binding): 0.784 ± 0.097 µM

Some of these lines once more:
OC[C@H]1O[C@@H](n2cnc3c(O)ncnc32)[C@H](O)[C@@H]1O  Ki (Equilibrative nucleoside transporter 2; ENT1 knockout): 65 ± 24 µM
C[C@@H]1CCO[C@H]2Cn3cc(C(=O)NCc4ccc(F)cc4F)c(=O)c(O)c3C(=O)N12  Ki (Multidrug and toxin extrusion protein 2 (SLC47A2, Homo sapiens, UniProt Q86VL8); inhibitor; geometric mean of reported): 19.4 µM
CN1C(=N)N(C)/C(=C/c2c[nH]c3cc(Br)ccc23)C1=O  Ki (human 5-HT2A receptor; COS-7 transiently transfected): 2 µM
O=c1[nH]c(=O)c2[nH]c(=O)c(=O)n(C[C@H](O)[C@H](O)[C@H](O)CO)c2[nH]1  Ki (Bacillus subtilis lumazine synthase; inhibitor; recombinant β60 capsid; pH 7.0, Tris·HCl buffer, together with: 2 constant, 1 varied): 7.8 ± 0.5 µM
O=C(O)[C@H]1NCCN(C(=O)c2ccc3c(c2)CCc2cc(Br)ccc2-3)[C@H]1C(=O)O  Ki (Grin2a with GluN1a subunit; ion current, antagonist; Xenopus oocytes expressing GluN1/GluN2A, rat): 3.9 ± 0.2 µM
GIINTLQKYYCRVRGGRCAVLSCLPKEEQIGKCSTRGRKCCRRKK (β-defensin 3 (human); ends and bridges not checked; cysteine pairing not given here; sequence looked up)  Ki (MC1R; peptide): 0.0138 µM
COc1ccccc1CN(C(C)=O)c1cnccc1Oc1ccccc1  Ki (Translocator protein, open form (TSPO, Homo sapiens, UniProt P30536); human brain tissue; high-affinity binders): ~0.004 µM and 0.0034 µM
OCC1CC(n2cnc3c(SCc4ccccc4)ncnc32)C(O)C1O (stereo not shown)  Ki (adenosine kinase (Toxoplasma gondii); apparent Ki equals apparent Km): 105 ± 12 µM
